Published values pooled from the literature.
A part holds a random share of what one study measured.

Block 1 — technique: aptamer microarray, sandwich; molecule type: DNA with 2'F-ANA; matrix: in vitro; concentration: 200 nM; added: Cy3 exosite-II aptamer, 400 nM; reading: higher = stronger binding; strand: GGTTGGTGTGGTTGG
Target: Prothrombin, mature alpha-thrombin (F2, Homo sapiens, UniProt P00734)
Notes: whole 15-mer aptamer, many near background
Modification | mean fluorescence intensity [a.u.]
2'F-ANA at 2 4 5 6 7 8 12 13 14 | 43.9
2'F-ANA at 3 7 8 9 11 | 1250
2'F-ANA at 1 4 8 9 11 12 13 15 | 140
2'F-ANA at 2 3 8 10 12 15 | 438
2'F-ANA at 2 4 5 7 8 10 12 15 | 52.5
2'F-ANA at 1 3 5 7 8 10 | 52.4
2'F-ANA at 3 4 6 7 9 12 13 14 15 | 233
2'F-ANA at 1 2 4 6 7 11 12 14 | 53.9
2'F-ANA at 2 3 4 6 7 9 11 12 13 14 15 | 200
2'F-ANA at 1 3 4 5 6 12 13 | 75
2'F-ANA at 1 2 3 5 6 8 10 12 14 | 50.6
2'F-ANA at 3 4 5 6 7 8 9 11 14 15 | 62.7
2'F-ANA at 2 6 7 9 10 11 12 13 14 | 77.9
2'F-ANA at 2 3 5 7 8 12 14 15 | 69.2
2'F-ANA at 11 | 599
2'F-ANA at 1 2 5 7 9 11 13 14 | 45.9
2'F-ANA at 2 3 4 7 10 12 15 | 344
2'F-ANA at 1 2 4 5 11 13 | 70.1
2'F-ANA at 1 2 3 4 5 6 7 8 10 | 50.3
2'F-ANA at 1 3 4 5 8 10 12 14 | 45.2
2'F-ANA at 1 3 9 12 | 620
2'F-ANA at 1 3 7 10 12 15 | 121
2'F-ANA at 1 5 7 12 13 15 | 84.7
2'F-ANA at 4 8 9 11 13 15 | 187
2'F-ANA at 1 4 8 11 13 14 | 51.5

Block 2 — technique: protein-binding microarray; molecule type: double-stranded DNA, one strand shown; matrix: in vitro; concentration: 2200 nM top; notes: 60-bp whole probe; added: salmon DNA 0.4 mg/ml; reference: random background probes; reading: higher = stronger binding; constant ends, left off below: GCCTAGCAC … GTCTTGATTCGCTTGACGCTGCTG
Target: Interferon regulatory factor 7, full length, phosphomimetic (IRF7, Homo sapiens, UniProt Q92985, residues 1-503, S471D/S472D/S475D/S476D/S477D/S483D/S484D/S487D)
Sequence of UniProt Q92985 (whole entry, unmodified, looked up): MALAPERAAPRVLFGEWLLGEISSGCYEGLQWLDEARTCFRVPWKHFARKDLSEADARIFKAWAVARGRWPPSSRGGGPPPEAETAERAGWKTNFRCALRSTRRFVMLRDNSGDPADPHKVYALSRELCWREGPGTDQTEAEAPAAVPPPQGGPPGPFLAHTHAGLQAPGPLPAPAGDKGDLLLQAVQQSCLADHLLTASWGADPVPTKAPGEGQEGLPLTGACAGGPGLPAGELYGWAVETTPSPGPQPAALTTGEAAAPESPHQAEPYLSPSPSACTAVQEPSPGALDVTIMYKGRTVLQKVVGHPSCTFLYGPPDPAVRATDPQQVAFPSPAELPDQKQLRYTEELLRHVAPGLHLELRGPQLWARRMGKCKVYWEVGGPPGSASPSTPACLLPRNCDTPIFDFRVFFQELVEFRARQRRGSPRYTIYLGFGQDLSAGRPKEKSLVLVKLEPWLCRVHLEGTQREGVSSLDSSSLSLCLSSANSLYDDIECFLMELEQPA
Strand | fitted relative affinity [z-score]
TTATGTTTCGGGACTGGGTTAGTGCTA | 3.14
CACGGTTCCGGTTTCGGGACGTGCTAG | 5.55
TTAGGTCCCCTTCTCCTTTAGTGCTAG | 1.32
TTAGGTATCGGATTGGGTTAGTGCTAG | 0.855
TTAGAACTCGGGTTTCGATTAGTGCTA | 2.68
TTAGATTTCAGACTCGATTAGTGCTAG | 0.262
GATGGTATCCTTATCCTGACGTGCTAG | 0.878
GACGGTTTCCTACGGCTGACGTGCTAG | 1.16
GACGGACTGGACGATCGGGACGTGCTA | -0.551
ACTTAAACTAGAAACTGACTTGTGCTA | -0.567
TCATTTTTTTTTTTGGAACTGTGCTAG | 1.67
CACGGTTTCGGTCTCGGGACGTGCTAG | 6.72
TTAGGTCTCGGTCTCGGATAGTGCTAG | 0.286
TCATTTTTTTCTAACTAACTGTGCTAG | 1.17
GACGGTATCGATATCGGGACGTGCTAG | 0.645
ATAGGTCTCCTTTTCCTTTAGTGCTAG | 2.01
GACGGTTTCGACTTTCTGGACGTGCTA | 6.86
GACGGACTGGGGTTTCGGTACGTGCTA | 1.09
TTAGGTATCGGTACCGGTTAGTGCTAG | 0.386
TCAATTCTCTGCTTGCGACTGTGCTAG | 1.28
TTAGGTTTCGGGTATCGGTGAGTGCTA | 6
TTAGGACTGGGTCTCGGTAAGTGCTAG | -0.544
TCATAACTCATTCTCTGACTGTGCTAG | 1.12

Block 3 — technique: RNA Bind-n-Seq; molecule type: RNA; matrix: in vitro; concentration: 365 nM; reference: no-protein control; reading: higher = stronger binding
Target: RNA binding protein fox-1 homolog 2, RRM domain, GST-SBP tag (RBFOX2, Homo sapiens, UniProt O43251-10, residues 100-194)
Notes: natural RNA segment, single round, ends assumed
Constant ends, left off below: GGGAGUUCUACAGUCCGACGAUC … UGGAAUUCUCGGGUGCCAA
Strand | RBNS enrichment (R)
CCUCAGUGGCCACAUCAUGCCCACUCCCACUCCAUCCUGUCCCCAAGGACUCACAUACAGUGCCUGGAGAAAGCCAAAGACCUUUAUUUCUUCCUGCCUCCCCGUGGGAA | 0.385
UUGUAUUCUCGACACAAAAUAAGUGAAACUUCUUUUUACAAAGAUAGAGAAACAGCACAAUCAAUUCCAAAUGGUAUGAGAUGGAUUGGAAGUGGCCAGCAGCAAGUUCU | 1.26
UGUGCUUGGAUGCUUUUUAUAAGAGUUGUCAUUGUUGGAAAUUCUUAAAUAAAACUGAUUUAAAUAAUAUGUGUCUUUGUUUUGCAGCCCUGAAUGCAAAGAAUUCAUAG | 15.4
CGGUUGUAAAGAGGUUGUGCAGUUGCAAGGGUGGAGCCUUCUGGGUCCCUUGAGCCAAAGGCCUACCAUCUGCUCGAGGAGUCCCCAUGUCCCUUGGCUGCUCUCGGGUC | 0.587
GUGUCCCGGAGGAACAGGCUAAGCAAGGGGCCCAGGAAGUUGUCCAGAGGACAGGGGCUAAUGAGCUGCUCAGAGCUGCCCUGCCCCUGCUUCUGAACACUGCUUUCCAC | 0.396
AAAGUAUGGUCAUUGGUUGCAUAAUUUGAUUUGAGGCUUGUGGAGGAAAGGAACCAAGUGACUCUGAUGUUUACAAAGCACCUAUGAAACCCUGUACACACCUAGUUCAU | 0.901
AGAAGGGUGAUUAUGAGUGGUUCACAGCAGCCCUUAUAAGCUGGGCCAGAAAAUUUCACUAGGUCAGUAAUUUAAACCUUGGAUCUUCAAAAAAUAAAAUAAUGUGAAGC | 0.559
UGUGGUCUUGCUGUCUCUCCCACUGUGCCCUGGCCUGGCUUGUGGCUUCUUCUUUGCCUGUUCCAAAAGCCAGGGCCCUGGGCCUGCUCUUCAUCUUGCGGGCCUCCUAG | 0.382
GGCUGGCUGGGGACUUUCCCCCCACCUGUCCCCUCCUCCUUUCCCCCCUCUUGAAGAAGAUGGGCAGAGGAGUGACAGCCGAAUGACAGCCGGCAGCAACUGGAAUGGCA | 0.925
AUGUAAAGAAAGUAUAACAAUUAUUUCUUUGUAUUUUAGGGGCUUUAACCGGAACAUCGUCUAGCUGGUGUUAGGAAUGUUUGCUUAAUUUCCAGACUUUUUUUUAAAAA | 0.56
GAUUUCCAGGAUGAGUCAGGGUGUGCUGGGCCCUCCAGGAUUUGAGAGAGGGAGAGAAGGCCCUUGCCACGUCCGGGGUGCAGGGUCUACCCACAGAACACUGUGAGUGG | 0.403
CCAAGACAUCUCUGACAGAAGUGUUUUUGUUUGGUUUUGUUUUUUAAGAUUAUGUAUUUGCUACAAAGUAUUGUACUUGUCUCAAUGGGAAUGGUGUUAAAAAAGAAAAA | 0.396

Block 4 — technique: RNA Bind-n-Seq; molecule type: RNA; matrix: in vitro; concentration: 15 pmol; notes: 4-mer, random 30-nt RNA, single round; added: DMSO vehicle, 2 mM AMP-PNP; reference: input library; reading: higher = stronger binding
Target: Eukaryotic initiation factor 4A-I (EIF4A1, Homo sapiens, UniProt P60842, residues 1-406, full length assumed)
Sequence of UniProt P60842 (whole entry, looked up): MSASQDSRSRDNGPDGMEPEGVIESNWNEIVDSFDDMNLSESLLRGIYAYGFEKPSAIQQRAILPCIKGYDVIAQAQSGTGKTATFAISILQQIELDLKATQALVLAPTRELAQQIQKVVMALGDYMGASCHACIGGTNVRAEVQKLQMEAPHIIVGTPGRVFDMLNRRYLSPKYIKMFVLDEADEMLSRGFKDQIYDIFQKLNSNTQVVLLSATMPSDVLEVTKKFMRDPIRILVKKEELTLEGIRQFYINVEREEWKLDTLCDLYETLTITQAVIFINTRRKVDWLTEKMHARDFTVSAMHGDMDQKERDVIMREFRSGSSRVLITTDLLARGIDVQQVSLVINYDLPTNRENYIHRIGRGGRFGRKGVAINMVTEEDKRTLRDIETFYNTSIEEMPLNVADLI
Strand | 4-mer enrichment [fold]
AACU | 1.07
UUAA | 0.94
CAUU | 0.988
CAAU | 1.11
CGCG | 0.866
AAGA | 1.08
UCUC | 1.08
AUUC | 0.897
UCUG | 1.16
CGUU | 0.923
CGAC | 1.46
UGGC | 1.01
UACG | 0.875
CGGC | 1.58
GAAC | 1.04
GCUC | 1.06
GGAA | 1.21
UUUU | 0.972
UGAG | 1.19
UAUA | 0.694
ACGU | 0.88

Block 5 — cell line: yeast with cyclin D2-Cln2 chimera; effect on: cell growth; action: binder; technique: competitive growth deep sequencing; molecule type: peptide; concentration: concentration not given; notes: peptide tiling library; reading: direction not given
Molecule | growth enrichment score
RVSGLLSWTLSRVLWL | -0.763
NEGVSNAVRRSLYIRD | -0.272
KSKHEEEEWTDDDLVE | -0.456
KVKRRLDLDIDGLQKE | 0.952
VKTKKRLNFDDK | 0.475
RQVRRDLFAF | -0.893
SPPRGRRLFPPGPAGF | -0.894
KRNLLNEFDRII | -0.367
NSMKELNFSHLPSNSV | 0.503
DSGFCLDSPGPLDSKE | -0.554
KRRLDLETDHQY | -0.505
GFGFLLFICKLTF | -0.662

For quick reference, copied from above (block 4):
Strand | 4-mer enrichment [fold]
UCUG | 1.16
CGUU | 0.923
CGAC | 1.46
UGGC | 1.01
UACG | 0.875
CGGC | 1.58
